Published values pooled from the literature.
A part holds a random share of what one study measured.

Series 1
Target: DNA polymerase theta, ATPase domain (POLQ, Homo sapiens, UniProt O75417)
Observed: enzyme activity
Mode: inhibitor
Tested at: 77 µM
Endpoint: remaining activity
CNCC(=O)c1ccc(O)c(O)c1: 90%
CN1CCc2cc3c(cc2C1O)OCO3 (stereo not drawn): 99%
O=C(N[C@H]1CN2CCC1CC2)c1ccc(Cl)cc1: 103%
Oc1ccc2c3c1O[C@H]1[C@@H](O)CC[C@@]4(O)[C@@H](C2)N(CC2CCC2)CC[C@]314: 99.2%
CN1CCN(c2nc3ccccc3nc2Cl)CC1: 104%
CC(C)(C)OC(=O)NC1[C@H]2CNC[C@@H]12 (stereo partly drawn): 100%
Cc1nccc2c1[nH]c1cc(O)ccc12: 103%
O=c1[nH]c2ccccc2n1CCCN1CCC(n2c(=O)[nH]c3cc(Cl)ccc32)CC1: 107%
CC1(C)CC(O)CC(C)(C)N1[O]: 97.5%
CCc1c(C(=O)C(N)=O)c2c(OCC(=O)O)cccc2n1Cc1ccccc1: 95.9%
C[C@H](Cc1ccc2c(c1)OC(C(=O)O)(C(=O)O)O2)NC[C@H](O)c1cccc(Cl)c1: 97.6%

Series 2
Target: Cyclin-dependent kinase 2/cyclin E1 (Homo sapiens, UniProt P24864+P24941)
Observed: binding
Method: competitive fluorescence polarization
With: FITC-PKN2-RxL peptide tracer
Endpoint: Kd
CC(C)C[C@H](NC(=O)[C@H](CCCNC(=N)N)NC(=O)[C@H](CCCNC(=N)N)NC(=O)[C@H](CCCCN)NC(=O)[C@H](C)NC(=O)[C@H](CO)NC(=O)CN)C(=O)N[C@@H](Cc1ccccc1)C(=O)NCC(=O)N[C@@H](CCC(=O)O)C(=O)N[C@@H](CC(=O)O)C(=O)N1CCC[C@H]1C(=O)N1CCC[C@H]1C(=O)O: 0.596 µM
CC[C@H](C)[C@H](NC(=O)[C@H](CC(=O)O)NC(=O)[C@H](CC(C)C)NC(=O)[C@H](CC(=O)O)NC(=O)[C@H](CC(C)C)NC(=O)[C@H](CCCNC(=N)N)NC(=O)[C@H](CCCNC(=N)N)NC(=O)[C@H](CCCCN)NC(=O)[C@@H](NC(=O)[C@H](CCCCN)NC(=O)[C@@H](N)CCC(=O)O)C(C)C)C(=O)N[C@@H](CC(=O)O)C(=O)NCC(=O)O: 8.13 µM
CC(C)C[C@H](NC(=O)[C@H](CCC(N)=O)NC(=O)[C@H](CO)NC(=O)[C@H](CCCNC(=N)N)NC(=O)[C@H](C)NC(=O)CNC(=O)[C@@H](N)CCCNC(=N)N)C(=O)N[C@@H](Cc1ccccc1)C(=O)N1CCC[C@H]1C(=O)N1CCC[C@H]1C(=O)N[C@H](C(=O)N[C@@H](CCC(=O)O)C(=O)N[C@@H](C)C(=O)O)[C@@H](C)O: 164 µM
CC(C)C[C@H](NC(=O)[C@H](CC(N)=O)NC(=O)[C@H](CCCNC(=N)N)NC(=O)[C@H](CCCCN)NC(=O)[C@H](C)NC(=O)[C@H](CC(N)=O)NC(=O)[C@@H](N)CCCCN)C(=O)N[C@@H](CO)C(=O)N[C@@H](CO)C(=O)N[C@@H](CCC(=O)O)C(=O)N[C@@H](Cc1ccccc1)C(=O)N[C@@H](C)C(=O)N[C@@H](CC(N)=O)C(=O)O: 6.22 µM
CSCC[C@H](NC(=O)[C@@H](NC(=O)[C@H](CC(=O)O)NC(=O)[C@H](CO)NC(=O)[C@H](Cc1ccccc1)NC(=O)[C@H](CC(=O)O)NC(=O)[C@H](CC(C)C)NC(=O)[C@H](CCCCN)NC(=O)[C@H](CCC(N)=O)NC(=O)[C@@H](NC(=O)[C@H](C)NC(=O)[C@H](CO)NC(=O)[C@@H](N)C(C)C)C(C)C)[C@@H](C)O)C(=O)O: 57 µM

Series 3
Cell line: HEK-293T/ACE2
Tested at: concentration not given
Time: 16 (unit not given)
Baseline: vehicle
Endpoint: viability
C[C@]12CCC(=O)C=C1CC[C@@H]1[C@@H]2[C@@H](O)C[C@@]2(C)[C@H]1CC[C@]2(O)C(=O)CO: 104%
Nc1nc2c(c(=O)[nH]1)N(C=O)C(CNc1ccc(C(=O)N[C@@H](CCC(=O)O)C(=O)O)cc1)CN2 (stereo partly drawn): 103%
C=CC[N+]1([C@H]2C[C@H]3[C@@H]4CC[C@H]5C[C@H](O)[C@@H](N6CCOCC6)C[C@]5(C)[C@H]4CC[C@]3(C)[C@H]2OC(C)=O)CCCC1: 103%
CC(c1cc2ccccc2s1)N(O)C(N)=O (stereo not drawn): 101%
Cc1ccnc2c1NC(=O)c1cccnc1N2C1CC1: 99%
CN(C)CCC[C@@]1(c2ccc(F)cc2)OCc2cc(C#N)ccc21: 106%
CCC(=O)O[C@]1(C(=O)CCl)[C@@H](C)C[C@H]2[C@@H]3CCC4=CC(=O)C=C[C@]4(C)[C@@]3(F)[C@@H](O)C[C@@]21C: 101%
CN1C[C@H](C(=O)N[C@]2(C)O[C@@]3(O)[C@@H]4CCCN4C(=O)[C@H](Cc4ccccc4)N3C2=O)C[C@@H]2c3cccc4[nH]cc(c34)C[C@H]21: 99%
CC(C)NCC(O)c1ccc(NS(C)(=O)=O)cc1 (stereo not drawn): 99.4%
CCCC(=O)O[C@]1(C(=O)CO)CC[C@H]2[C@@H]3CCC4=CC(=O)CC[C@]4(C)[C@H]3[C@@H](O)C[C@@]21C: 103%
COC(=O)c1ccccc1O: 98.3%
CC(C)Cn1cnc2c(N)nc3ccccc3c21: 89.8%

Series 4
SMILES: CO[C@@H](C)c1c(Nc2ccc([C@H](N(C)C(=O)C3CCS(=O)(=O)CC3)C(F)(F)F)cc2)cnc2cc(Cl)nn12
Tested at: 10 µM
Endpoint: inhibition
Delta-type opioid receptor (OPRD1, Homo sapiens, UniProt P41143); ligand displacement: -26.4%
Sodium-dependent serotonin transporter (SLC6A4, Homo sapiens, UniProt P31645); cell-free assay: 11.3%
D(1B) dopamine receptor (DRD5, Homo sapiens, UniProt P21918); ligand displacement: 9.7%
5-hydroxytryptamine receptor 1A (HTR1A, Homo sapiens, UniProt P08908); ligand displacement: -16.5%
Mu-type opioid receptor (OPRM1, Homo sapiens, UniProt P35372); ligand displacement: 6.13%

Repeated from above (series 2):
CSCC[C@H](NC(=O)[C@@H](NC(=O)[C@H](CC(=O)O)NC(=O)[C@H](CO)NC(=O)[C@H](Cc1ccccc1)NC(=O)[C@H](CC(=O)O)NC(=O)[C@H](CC(C)C)NC(=O)[C@H](CCCCN)NC(=O)[C@H](CCC(N)=O)NC(=O)[C@@H](NC(=O)[C@H](C)NC(=O)[C@H](CO)NC(=O)[C@@H](N)C(C)C)C(C)C)[C@@H](C)O)C(=O)O: 57 µM
CC(C)C[C@H](NC(=O)[C@H](CC(N)=O)NC(=O)[C@H](CCCNC(=N)N)NC(=O)[C@H](CCCCN)NC(=O)[C@H](C)NC(=O)[C@H](CC(N)=O)NC(=O)[C@@H](N)CCCCN)C(=O)N[C@@H](CO)C(=O)N[C@@H](CO)C(=O)N[C@@H](CCC(=O)O)C(=O)N[C@@H](Cc1ccccc1)C(=O)N[C@@H](C)C(=O)N[C@@H](CC(N)=O)C(=O)O: 6.22 µM
CC(C)C[C@H](NC(=O)[C@H](CCCNC(=N)N)NC(=O)[C@H](CCCNC(=N)N)NC(=O)[C@H](CCCCN)NC(=O)[C@H](C)NC(=O)[C@H](CO)NC(=O)CN)C(=O)N[C@@H](Cc1ccccc1)C(=O)NCC(=O)N[C@@H](CCC(=O)O)C(=O)N[C@@H](CC(=O)O)C(=O)N1CCC[C@H]1C(=O)N1CCC[C@H]1C(=O)O: 0.596 µM
CC[C@H](C)[C@H](NC(=O)[C@H](CC(=O)O)NC(=O)[C@H](CC(C)C)NC(=O)[C@H](CC(=O)O)NC(=O)[C@H](CC(C)C)NC(=O)[C@H](CCCNC(=N)N)NC(=O)[C@H](CCCNC(=N)N)NC(=O)[C@H](CCCCN)NC(=O)[C@@H](NC(=O)[C@H](CCCCN)NC(=O)[C@@H](N)CCC(=O)O)C(C)C)C(=O)N[C@@H](CC(=O)O)C(=O)NCC(=O)O: 8.13 µM
